# Measurements from different studies.
# A part holds a random share of what one study measured.
# Chain of UniProt Q5S007 (whole entry, looked up): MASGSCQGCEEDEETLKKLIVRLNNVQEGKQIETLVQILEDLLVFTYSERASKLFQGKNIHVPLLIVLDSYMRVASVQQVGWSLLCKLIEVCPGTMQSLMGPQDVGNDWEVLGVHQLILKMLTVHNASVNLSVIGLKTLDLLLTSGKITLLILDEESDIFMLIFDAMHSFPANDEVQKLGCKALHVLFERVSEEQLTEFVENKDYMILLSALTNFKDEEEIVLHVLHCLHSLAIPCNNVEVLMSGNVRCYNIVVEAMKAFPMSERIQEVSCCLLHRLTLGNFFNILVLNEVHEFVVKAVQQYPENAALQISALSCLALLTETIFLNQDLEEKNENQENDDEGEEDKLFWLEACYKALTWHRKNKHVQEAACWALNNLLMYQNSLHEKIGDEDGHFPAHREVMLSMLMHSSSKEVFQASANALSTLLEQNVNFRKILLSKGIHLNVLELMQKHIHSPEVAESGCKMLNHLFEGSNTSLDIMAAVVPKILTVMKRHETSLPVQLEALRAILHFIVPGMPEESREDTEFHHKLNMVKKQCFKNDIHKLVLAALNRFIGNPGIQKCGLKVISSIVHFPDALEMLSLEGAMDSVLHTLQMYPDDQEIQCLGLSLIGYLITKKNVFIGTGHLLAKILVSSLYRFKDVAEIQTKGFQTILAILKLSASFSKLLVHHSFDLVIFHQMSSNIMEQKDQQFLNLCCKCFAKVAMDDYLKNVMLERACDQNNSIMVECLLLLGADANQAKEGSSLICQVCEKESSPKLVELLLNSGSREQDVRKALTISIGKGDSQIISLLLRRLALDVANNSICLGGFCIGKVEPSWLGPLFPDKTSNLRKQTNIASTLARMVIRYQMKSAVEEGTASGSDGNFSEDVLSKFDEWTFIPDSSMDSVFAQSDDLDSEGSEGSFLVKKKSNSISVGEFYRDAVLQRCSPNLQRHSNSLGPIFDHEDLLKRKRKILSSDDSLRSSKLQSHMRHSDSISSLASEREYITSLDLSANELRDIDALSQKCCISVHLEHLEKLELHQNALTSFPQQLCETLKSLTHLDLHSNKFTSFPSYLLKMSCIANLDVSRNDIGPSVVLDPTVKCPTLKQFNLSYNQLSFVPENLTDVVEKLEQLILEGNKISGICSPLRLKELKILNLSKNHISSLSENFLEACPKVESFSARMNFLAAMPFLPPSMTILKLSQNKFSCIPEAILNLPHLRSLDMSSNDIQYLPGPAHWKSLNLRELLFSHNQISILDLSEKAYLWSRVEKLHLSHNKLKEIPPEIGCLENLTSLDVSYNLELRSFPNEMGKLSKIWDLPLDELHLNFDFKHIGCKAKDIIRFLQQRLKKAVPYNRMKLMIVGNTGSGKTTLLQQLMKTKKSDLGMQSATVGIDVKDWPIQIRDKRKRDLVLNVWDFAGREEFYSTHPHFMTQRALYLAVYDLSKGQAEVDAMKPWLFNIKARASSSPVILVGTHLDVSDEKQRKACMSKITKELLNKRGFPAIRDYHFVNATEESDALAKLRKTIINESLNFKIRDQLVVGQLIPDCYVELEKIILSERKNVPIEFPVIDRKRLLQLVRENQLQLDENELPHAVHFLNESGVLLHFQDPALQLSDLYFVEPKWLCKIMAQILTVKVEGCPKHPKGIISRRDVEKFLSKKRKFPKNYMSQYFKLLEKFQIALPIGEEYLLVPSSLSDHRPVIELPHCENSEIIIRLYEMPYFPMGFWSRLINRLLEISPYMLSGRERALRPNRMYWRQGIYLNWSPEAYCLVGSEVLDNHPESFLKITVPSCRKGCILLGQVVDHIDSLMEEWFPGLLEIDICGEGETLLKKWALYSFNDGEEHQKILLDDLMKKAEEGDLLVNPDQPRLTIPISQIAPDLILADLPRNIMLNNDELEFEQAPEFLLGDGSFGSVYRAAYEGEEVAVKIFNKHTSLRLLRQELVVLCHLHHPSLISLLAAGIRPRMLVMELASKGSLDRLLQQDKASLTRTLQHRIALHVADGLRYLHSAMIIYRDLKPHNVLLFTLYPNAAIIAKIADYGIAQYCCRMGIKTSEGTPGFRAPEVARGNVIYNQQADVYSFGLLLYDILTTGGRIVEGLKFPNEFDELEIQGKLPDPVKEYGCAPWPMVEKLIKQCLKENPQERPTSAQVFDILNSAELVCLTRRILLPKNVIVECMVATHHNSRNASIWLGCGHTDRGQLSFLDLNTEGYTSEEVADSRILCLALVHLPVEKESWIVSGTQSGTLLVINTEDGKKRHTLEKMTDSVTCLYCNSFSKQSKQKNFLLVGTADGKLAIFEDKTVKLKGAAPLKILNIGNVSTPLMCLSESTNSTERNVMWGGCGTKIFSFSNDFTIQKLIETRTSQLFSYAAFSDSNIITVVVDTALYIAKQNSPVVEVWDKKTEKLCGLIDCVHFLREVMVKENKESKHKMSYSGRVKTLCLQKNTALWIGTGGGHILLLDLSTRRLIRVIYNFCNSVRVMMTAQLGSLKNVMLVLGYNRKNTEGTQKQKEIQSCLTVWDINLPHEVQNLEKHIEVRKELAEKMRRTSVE
# Chain of UniProt Q07912 (whole entry, looked up): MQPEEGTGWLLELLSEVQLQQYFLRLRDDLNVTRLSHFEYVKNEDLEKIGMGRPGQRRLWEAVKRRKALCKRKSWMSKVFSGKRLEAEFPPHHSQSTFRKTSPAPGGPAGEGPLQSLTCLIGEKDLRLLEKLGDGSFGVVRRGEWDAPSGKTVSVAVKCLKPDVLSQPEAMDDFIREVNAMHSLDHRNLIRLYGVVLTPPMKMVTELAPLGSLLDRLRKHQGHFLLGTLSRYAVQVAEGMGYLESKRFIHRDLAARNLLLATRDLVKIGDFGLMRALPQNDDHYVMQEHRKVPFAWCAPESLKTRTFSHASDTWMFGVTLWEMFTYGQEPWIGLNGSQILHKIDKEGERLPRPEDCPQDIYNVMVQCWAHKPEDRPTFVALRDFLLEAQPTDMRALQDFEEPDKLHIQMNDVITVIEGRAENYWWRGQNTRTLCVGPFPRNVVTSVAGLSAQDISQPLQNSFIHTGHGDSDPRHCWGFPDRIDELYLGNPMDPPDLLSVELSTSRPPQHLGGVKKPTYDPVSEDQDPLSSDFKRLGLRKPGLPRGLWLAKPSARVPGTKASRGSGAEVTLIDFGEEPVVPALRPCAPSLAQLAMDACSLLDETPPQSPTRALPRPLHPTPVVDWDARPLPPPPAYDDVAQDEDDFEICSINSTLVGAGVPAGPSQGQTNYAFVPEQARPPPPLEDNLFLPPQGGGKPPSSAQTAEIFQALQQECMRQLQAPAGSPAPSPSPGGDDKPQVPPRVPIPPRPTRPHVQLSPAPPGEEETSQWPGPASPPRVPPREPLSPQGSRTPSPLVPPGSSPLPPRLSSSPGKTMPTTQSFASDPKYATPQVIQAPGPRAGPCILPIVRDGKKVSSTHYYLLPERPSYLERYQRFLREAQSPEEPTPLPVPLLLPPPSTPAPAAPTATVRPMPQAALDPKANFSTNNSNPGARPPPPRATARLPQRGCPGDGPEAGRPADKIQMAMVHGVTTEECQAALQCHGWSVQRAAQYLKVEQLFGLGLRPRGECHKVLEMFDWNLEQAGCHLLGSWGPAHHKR
# Chain of UniProt Q15375 (whole entry, looked up): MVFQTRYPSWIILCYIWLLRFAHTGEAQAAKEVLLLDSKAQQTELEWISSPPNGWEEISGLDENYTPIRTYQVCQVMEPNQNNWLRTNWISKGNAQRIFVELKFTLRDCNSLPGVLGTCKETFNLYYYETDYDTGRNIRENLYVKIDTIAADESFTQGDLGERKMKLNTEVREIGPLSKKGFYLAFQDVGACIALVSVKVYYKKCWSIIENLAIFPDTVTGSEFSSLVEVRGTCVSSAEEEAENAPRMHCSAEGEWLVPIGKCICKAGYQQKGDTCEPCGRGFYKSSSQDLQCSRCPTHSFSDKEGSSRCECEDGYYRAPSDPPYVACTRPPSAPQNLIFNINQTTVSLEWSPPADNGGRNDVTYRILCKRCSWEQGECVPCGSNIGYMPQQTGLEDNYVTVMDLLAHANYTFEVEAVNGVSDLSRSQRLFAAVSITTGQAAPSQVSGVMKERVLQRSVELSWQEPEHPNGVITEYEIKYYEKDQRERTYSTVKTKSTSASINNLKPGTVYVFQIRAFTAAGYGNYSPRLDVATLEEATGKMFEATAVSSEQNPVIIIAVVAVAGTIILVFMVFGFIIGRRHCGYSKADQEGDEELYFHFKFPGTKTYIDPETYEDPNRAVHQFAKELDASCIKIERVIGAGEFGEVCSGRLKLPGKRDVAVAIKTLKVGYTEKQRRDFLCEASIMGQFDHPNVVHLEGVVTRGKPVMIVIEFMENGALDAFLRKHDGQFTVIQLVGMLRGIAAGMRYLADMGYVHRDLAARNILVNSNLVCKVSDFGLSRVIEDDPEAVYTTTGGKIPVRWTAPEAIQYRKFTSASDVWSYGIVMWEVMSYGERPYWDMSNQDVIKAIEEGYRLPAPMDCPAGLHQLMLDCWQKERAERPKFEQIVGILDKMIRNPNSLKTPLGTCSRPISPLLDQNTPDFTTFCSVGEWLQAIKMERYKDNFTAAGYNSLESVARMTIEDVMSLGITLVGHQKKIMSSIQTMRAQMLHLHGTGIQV
# Chain of UniProt Q9UIK4 (whole entry, looked up): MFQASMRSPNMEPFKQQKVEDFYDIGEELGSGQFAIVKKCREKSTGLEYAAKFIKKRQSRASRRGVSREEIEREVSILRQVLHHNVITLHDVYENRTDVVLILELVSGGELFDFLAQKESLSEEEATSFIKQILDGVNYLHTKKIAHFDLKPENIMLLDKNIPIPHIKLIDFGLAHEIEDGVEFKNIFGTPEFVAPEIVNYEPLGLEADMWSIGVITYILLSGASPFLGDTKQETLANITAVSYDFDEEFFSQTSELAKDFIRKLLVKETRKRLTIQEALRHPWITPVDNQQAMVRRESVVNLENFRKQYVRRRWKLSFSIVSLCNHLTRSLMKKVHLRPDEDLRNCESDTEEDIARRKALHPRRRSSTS

# Sample 1 — concentration: 1 µM
# SMILES: C=CC(=O)N1CCC([C@@H]2CCNc3c(C(N)=O)c(-c4ccc(Oc5ccccc5)cc4)nn32)CC1
target,test,inhibition [%]
"TNK2 (Homo sapiens, UniProt Q07912)","enzyme activity, inhibitor",43
"Non-receptor tyrosine-protein kinase TYK2, JH2 pseudokinase domain (TYK2, Homo sapiens, UniProt P29597)",inhibitor,0
"DAPK1 (Homo sapiens, UniProt P53355)","enzyme activity, inhibitor",11
"PDGFRA (Homo sapiens, UniProt P16234)","enzyme activity, inhibitor",8
"STK32B (Homo sapiens, UniProt Q9NY57)",enzyme activity,13
"TRPM6 (Homo sapiens, UniProt Q9BX84)",inhibitor,4
"CDKL5 (Homo sapiens, UniProt O76039)",enzyme activity,0
"LATS2 (Homo sapiens, UniProt Q9NRM7)","enzyme activity, inhibitor",0
"TNIK (Homo sapiens, UniProt Q9UKE5)","enzyme activity, inhibitor",17
"Tyrosine-protein kinase ABL1, non-phosphorylated (ABL1, Homo sapiens, UniProt P00519, F317I)","enzyme activity, inhibitor",34
"MAPK4 (Homo sapiens, UniProt P31152)","enzyme activity, inhibitor",1

# Sample 2 — SMILES: CCC(=O)Nc1ccc2ncnc(Nc3cccc(Br)c3)c2c1; observed: enzyme activity; action: inhibitor; concentration: 0.5 µM; reference: control
target,remaining activity [%]
"LYN (Homo sapiens, UniProt P07948)",82.6
"AKT3 (Homo sapiens, UniProt Q9Y243)",94.4
"Cyclin-dependent kinase 9, with cyclin T1 (CDK9, Homo sapiens, UniProt P50750)",93.7
"IRAK4 (Homo sapiens, UniProt Q9NWZ3)",79.8
"PRKCI (Homo sapiens, UniProt P41743)",106
"EPHA5 (Homo sapiens, UniProt P54756)",101
"KIT (Homo sapiens, UniProt P10721)",90.4
"WNK2 (Homo sapiens, UniProt Q9Y3S1)",107
"CSNK2A1 (Homo sapiens, UniProt P68400)",99
"LRRK2 (Homo sapiens, UniProt Q5S007)",92.4
"STK38 (Homo sapiens, UniProt Q15208)",100
"MKNK2 (Homo sapiens, UniProt Q9HBH9)",55.6
"PLK2 (Homo sapiens, UniProt Q9NYY3)",108
"NEK4 (Homo sapiens, UniProt P51957)",94.7
"MAPK12 (Homo sapiens, UniProt P53778)",103
"PRKG1 (Homo sapiens, UniProt Q13976)",101
"CSNK1A1 (Homo sapiens, UniProt P48729)",97
"MAP2K6 (Homo sapiens, UniProt P52564)",94.5
"MAPK13 (Homo sapiens, UniProt O15264)",106
"PRKCD (Homo sapiens, UniProt Q05655)",93.8
"BTK (Homo sapiens, UniProt Q06187)",89.4
"MAP4K2 (Homo sapiens, UniProt Q12851)",90.5
"CHEK1 (Homo sapiens, UniProt O14757)",114

# Sample 3 — observed: cell-free assay; technique: competition with immobilised ligand; concentration: 0.1 µM
# SMILES: CC(C)CC(=O)N1CCc2nc(-c3ccc(Br)cc3)nc(N(C)Cc3ccccc3)c2C1
target,remaining binding [%]
"CAMK1 (Homo sapiens, UniProt Q14012)",100
"EGFR (Homo sapiens, UniProt P00533, G719S)",100
"ULK3 (Homo sapiens, UniProt Q6PHR2)",89
"ABL2 (Homo sapiens, UniProt P42684)",100
"DAPK2 (Homo sapiens, UniProt Q9UIK4)",100
"FLT3 (Homo sapiens, UniProt P36888)",60
"FGFR1 (Homo sapiens, UniProt P11362)",100
"MAP3K12 (Homo sapiens, UniProt Q12852)",90
"MAP3K2 (Homo sapiens, UniProt Q9Y2U5)",100
"EGFR (Homo sapiens, UniProt P00533, A750P/del747-749)",100
"FLT3 (Homo sapiens, UniProt P36888, D835V/ITD)",92
"CAMK2G (Homo sapiens, UniProt Q13555)",100
"EPHA7 (Homo sapiens, UniProt Q15375)",99
"MAPK11 (Homo sapiens, UniProt Q15759)",100
"TTK (Homo sapiens, UniProt P33981)",100
"COQ8A (Homo sapiens, UniProt Q8NI60)",100
"MAPK3 (Homo sapiens, UniProt P27361)",88
"PLK4 (Homo sapiens, UniProt O00444)",70
"LRRK2 (Homo sapiens, UniProt Q5S007)",100
"PKMYT1 (Homo sapiens, UniProt Q99640)",92
"Ribosomal protein S6 kinase alpha-3, C-terminal kinase domain (RPS6KA3, Homo sapiens, UniProt P51812)",67
"NEK10 (Homo sapiens, UniProt Q6ZWH5)",100
"STK32C (Homo sapiens, UniProt Q86UX6)",98
"GSK3A (Homo sapiens, UniProt P49840)",100
"Tyrosine-protein kinase ABL1, phosphorylated (ABL1, Homo sapiens, UniProt P00519, Y253F)",97

# Further values, each from its own experiment
Structure (SMILES),target,test,test system,setting,endpoint,value
O=C1CCC(N2Cc3c(ccc4c3OCC43CCC(Cc4ccccc4)CC3)C2=O)C(=O)N1 (stereo not drawn),"CRBN/Zinc finger protein Helios (Homo sapiens, UniProt Q96SW2+Q9UKS7)","degrader, HiBiT",HEK293,0.1694 nM,protein remaining,104%

# A few entries again (sample 2):
target,remaining activity [%]
"MAPK12 (Homo sapiens, UniProt P53778)",103
"PRKG1 (Homo sapiens, UniProt Q13976)",101
"CSNK1A1 (Homo sapiens, UniProt P48729)",97
"MAP2K6 (Homo sapiens, UniProt P52564)",94.5
